Results gathered from unrelated publications.
Numbers after ± are the reported error.

SMILES | assay | system | setting | half-life [h]
CC(COC(=O)c1ccccc1)OC(=O)C(N)Cc1ccccc1 (mixture of isomers) |  | Caco-2 cell homogenate | pH 7.4, 37 °C, 500 µg/mL protein | < 0.0833
CC(C)[C@H](NC(=O)[C@H]1CCC[C@@H]1NC(=O)[C@H](CC(N)=O)NC(=O)[C@H](CCCNC(=N)N)NC(=O)[C@H]1CCC[C@@H]1N)C(=O)N[C@@H](Cc1ccccc1)C(=O)N[C@H]1CCC[C@@H]1C(=O)N[C@@H](Cc1ccccc1)C(=O)N[C@@H](Cc1ccc(O)cc1)C(=O)N[C@H]1CCC[C@@H]1C(=O)N[C@H](C(=O)N[C@@H](CC(=O)O)C(N)=O)[C@@H](C)O | LC-MS | human serum | 10 µM, 37 °C | > 24
CCCC[C@H](NC(=O)[C@H](Cc1ccccc1)NC(=O)CNC(=O)[C@@H](C)NC(=O)[C@@H](N)Cc1ccc(O)cc1)C(=O)N1CCC[C@H]1C(=O)N[C@@H](CC(C)C)C(=O)N[C@@H](CO[C@@H]1O[C@H](CO)[C@@H](O)[C@H](O)[C@H]1O)C(=O)N[C@@H](Cc1c[nH]c2ccccc12)C(=O)NCc1cc(C(F)(F)F)cc(C(F)(F)F)c1 |  | rat plasma | 50 µg/mL, 37 °C | > 6
CC(C)C[C@@H]1NC(=O)Cc2ccc(nc2)-c2ccc(nc2)CSC[C@@H](C(=O)NCC(N)=O)NC(=O)CNC(=O)[C@@H]2CCCN2C(=O)[C@H](CCCCN)NC(=O)[C@H](CC(C)C)NC(=O)[C@@H]2CCCN2C(=O)[C@H](Cc2c[nH]cn2)NC(=O)[C@H](CC(C)C)NC(=O)[C@H](CCC(=O)O)NC(=O)[C@H](CS)NC(=O)[C@H](Cc2ccc(O)cc2)NC(=O)[C@H](CCCCN)NC(=O)[C@H](CCC(N)=O)NC(=O)[C@H](C(C)C)NC1=O |  | human serum | 10 µM, 37 °C | 30
Cc1cccc(-c2nc(Nc3ccncn3)c3c(C)csc3n2)n1 |  | mouse liver microsomes |  | < 0.05
CC(COC(=O)c1ccccc1)OC(=O)C(N)C(C)C (mixture of isomers) |  | rat intestinal lumenal perfusate | 37 °C | > 2
CC(=O)N[C@H](Cc1ccc(O)cc1)C(=O)N[C@@H](CCCNC(=N)N)C(=O)N[C@@H](Cc1ccccc1)C(=O)N[C@H]1CCC[C@@H]1C(=O)N[C@@H](CCCNC(=N)N)C(=O)N[C@@H](CC(N)=O)C(=O)N[C@H]1CCC[C@@H]1C(=O)N[C@H](C(=O)N[C@@H](Cc1ccccc1)C(=O)N[C@H]1CCC[C@@H]1C(=O)N[C@@H](Cc1ccccc1)C(=O)N[C@@H](Cc1ccc(O)cc1)C(=O)N[C@H]1CCC[C@@H]1C(=O)N[C@H](C(=O)N[C@@H](CC(=O)O)C(N)=O)[C@@H](C)O)C(C)C | LC-MS | human serum | 10 µM, 37 °C | 11
Cc1ccc2nc(C)c(C(=O)NCc3ccc(C(F)(F)F)cc3)n2c1 |  | rat liver microsomes |  | 0.483
CCC(CC)OC1C=C(C(=O)OC(C)OC(=O)C(N)CC(C)C)CC(NC(=N)N)C1NC(C)=O (mixture of isomers) |  | Caco-2 cell homogenate | pH 7.4, 37 °C, 500 µg/mL protein | 0.387 ± 0.113
O=C(NC12CC3CC(CC(C3)C1)C2)c1cc2cc(Cl)ccc2[nH]1 |  | human liver microsomes |  | > 0.5
CC[C@H](C)[C@@H]1NC(=O)[C@H](Cc2ccc(O)cc2)NC(=O)[C@@H](N)Cn2cc(nn2)CCCC[C@@H](C(=O)N2CCC[C@H]2C(=O)N[C@@H](CC(C)C)C(=O)NCC(N)=O)NC(=O)[C@H](CC(N)=O)NC(=O)[C@H](CCC(N)=O)NC1=O | RP-HPLC-MS | human pregnancy serum | 37 °C | > 48
CNc1nc(SC)nc2ccccc12 |  | human liver microsomes |  | 0.112
CSCC[C@H](NC(=O)[C@H](Cc1ccccc1)NC(=O)CNC(=O)[C@@H](C)NC(=O)[C@@H](N)Cc1ccc(O)cc1)C(=O)N1CCC[C@H]1C(=O)N[C@@H](CC(C)C)C(=O)N[C@@H](Cc1c[nH]c2ccccc12)C(=O)NCc1cc(C(F)(F)F)cc(C(F)(F)F)c1 |  | rat plasma | 50 µg/mL, 37 °C | 4.8
[CH3][Ti+2][O]C(=O)c1ccc([S][Au][PH](c2ccccc2)(c2ccccc2)[c-]2cccc2)cc1.[Fe+2].c1cc[cH-]c1.c1cc[cH-]c1.c1cc[cH-]c1 | NMR | DMSO-d6 |  | 32
CC[C@H](C)[C@@H]1NC(=O)[C@H](Cc2ccc(O)cc2)NC(=O)[C@@H](N)CSCSC[C@@H](C(=O)N2CCC[C@H]2C(=O)N[C@@H](CC(C)C)C(=O)NCC(N)=O)NC(=O)[C@H](CC(N)=O)NC(=O)[C@H](CCC(N)=O)NC1=O |  | phosphate buffer | 0.1 mg/mL, pH 4.5, 40 °C | 3190 ± 168
CC[C@H](C)[C@@H]1NC(=O)CNC(=O)[C@@H]2CSSC[C@@H]3NC(=O)[C@H](Cc4ccc(O)cc4)NC(=O)[C@@H](NC(=O)[C@H](CC(C)C)NC(=O)[C@H](CC(C)C)NC(=O)CN)CSSC[C@@H](C(=O)N4CCC[C@H]4C(=O)N[C@@H](CCCNC(=N)N)C(=O)N[C@@H](CCCNC(=N)N)C(=O)O)NC(=O)[C@H](CSSC[C@H](NC(=O)[C@H](Cc4c[nH]cn4)NC(=O)CNC(=O)[C@H](CCCCN)NC(=O)[C@H](CCCNC(=N)N)NC3=O)C(=O)N[C@@H](CCCCN)C(=O)N[C@@H](CCCNC(=N)N)C(=O)NCC(=O)N[C@@H](CCC(=O)O)C(=O)N[C@@H](CCCNC(=N)N)C(=O)N[C@@H](C(C)C)C(=O)N[C@@H](CCCNC(=N)N)C(=O)NCC(=O)N[C@@H]([C@@H](C)O)C(=O)N2)NC(=O)[C@H](Cc2ccc(O)cc2)NC(=O)[C@H](CC(C)C)NC(=O)[C@H](Cc2ccccc2)NC(=O)[C@H](CCCNC(=N)N)NC1=O |  | 100% human serum | 27 µM, 37 °C, heat-inactivated serum | > 48
CC(C)[C@H](N)C(=O)OCOC(=O)c1ccccc1.O=C(O)C(F)(F)F |  | isotonic buffer | pH 1.2, 37 °C | 10.5
Cc1ccc(OCCN(C)C)cc1C(=O)N[C@H](C)c1cc(-c2cnn(C)c2)cc(-c2cnn(C3CC3)c2)c1 |  | mouse liver microsomes |  | 1.93
CC(C)(C)C(=O)OCOP(=O)(OCOC(=O)C(C)(C)C)C1CCCN(O)C1=O (centres unmarked) |  | human blood | ex vivo | ~0.15
N#Cc1ccc(NC(=O)c2cccnc2)cc1Cl | chemical stability | buffer | 5 µM, pH 2.0, 37 °C | 0.354 ± 0.122
CCc1ccc([C@@H]2C[C@H](C(F)(F)F)n3ncc(C(=O)NCc4ccc(OC)cc4)c3N2)cc1 |  | human liver microsomes |  | > 0.5
CC(C)[C@H](NC(=O)[C@H](CCCNC(=N)N)NC(=O)[C@H](CCC(=O)O)NC(=O)[C@H](CCCNC(=N)N)NC(=O)[C@@H](NC(=O)[C@H](CCCNC(=N)N)NC(=O)[C@@H](NC(=O)[C@@H]1CCCN1C(=O)[C@H]1CCCN1C(=O)[C@@H](NC(=O)[C@H](CCCNC(=N)N)NC(=O)[C@@H](NC(=O)[C@H](CCCNC(=N)N)NC(=O)[C@@H](NC(=O)[C@H](CCCNC(=N)N)NC(=O)[C@@H](NC(=O)[C@@H](N)CCCCN)C(C)C)C(C)C)C(C)C)C(C)C)[C@@H](C)O)C(C)C)C(=O)N[C@@H](CCCCN)C(N)=O |  | serum 25% |  | 5
C#Cc1c(F)ccc2cc(O)cc(-c3ncc4c(N5CC6CCC(C5)N6C(=O)OCc5ccc(OC(=O)CCCC)cc5)nc(OC[C@@]56CCCN5C[C@H](F)C6)nc4c3F)c12 |  | mouse whole blood | 1 µM | 0.0108
NC1CCN(C(=O)OC2CCCC3(C2)OOC2(O3)C3CC4CC(C3)CC2C4)CC1 (centres unmarked) |  | mouse liver microsomes |  | 0.15
COC(=O)C[C@H](NC(=O)CNC(=O)[C@H](CCCNC(=N)NS(=O)(=O)c1c(C)c(C)c2c(c1C)CC(C)(C)O2)NC(=O)[C@H](C)N1C(=O)c2ccccc2C1=O)C(=O)N[C@@H](Cc1cccc(I)c1)C(=O)OC |  |  | 50 µM, pH 7.4, 25 °C, added: endoprotease AspN | 0.833
CN[C@@H]1[C@H](O)[C@H](NC)[C@H]2O[C@]3(O)[C@H](O[C@@H]2[C@H]1O)O[C@H](C)C[C@@]3(O)CNCc1ccc(Cl)cc1 |  | rat liver microsomes |  | 23.1
CC[C@H](C)[C@@H]1NC(=O)[C@H](CC(N)=O)NC(=O)[C@@H]2CCCN2C(=O)[C@@H](NC(=O)[C@H](CC(N)=O)NC(=O)[C@@H](N)CCC(N)=O)COC(=O)[C@H](CCSC)NC(=O)[C@H](Cc2c[nH]c3ccccc23)NC(=O)[C@H](CCC(N)=O)NC(=O)CNC(=O)[C@H](Cc2ccccc2)NC1=O |  | human plasma diluted with PBS | 0.28 mM, pH 7.2, 37 °C | < 0.5
C#Cc1c(F)ccc2cc(O)cc(-c3ncc4c(N5CC6CCC(C5)N6C(=O)CC(C)CC(=O)OCC)nc(OC[C@@]56CCCN5C[C@H](F)C6)nc4c3F)c12 (some centres unmarked) |  | mouse whole blood | 1 µM | 0.428
Cc1ccc(OCCN(C)C)cc1C(=O)N[C@H](C)c1cc(-c2cnn(C)c2)cc(-c2ccn(C)n2)c1 |  | mouse liver microsomes |  | 1.47

Excerpt of the above:
SMILES | assay | system | setting | half-life [h]
N#Cc1ccc(NC(=O)c2cccnc2)cc1Cl | chemical stability | buffer | 5 µM, pH 2.0, 37 °C | 0.354 ± 0.122
CC(=O)N[C@H](Cc1ccc(O)cc1)C(=O)N[C@@H](CCCNC(=N)N)C(=O)N[C@@H](Cc1ccccc1)C(=O)N[C@H]1CCC[C@@H]1C(=O)N[C@@H](CCCNC(=N)N)C(=O)N[C@@H](CC(N)=O)C(=O)N[C@H]1CCC[C@@H]1C(=O)N[C@H](C(=O)N[C@@H](Cc1ccccc1)C(=O)N[C@H]1CCC[C@@H]1C(=O)N[C@@H](Cc1ccccc1)C(=O)N[C@@H](Cc1ccc(O)cc1)C(=O)N[C@H]1CCC[C@@H]1C(=O)N[C@H](C(=O)N[C@@H](CC(=O)O)C(N)=O)[C@@H](C)O)C(C)C | LC-MS | human serum | 10 µM, 37 °C | 11
CC(C)(C)C(=O)OCOP(=O)(OCOC(=O)C(C)(C)C)C1CCCN(O)C1=O (centres unmarked) |  | human blood | ex vivo | ~0.15
COC(=O)C[C@H](NC(=O)CNC(=O)[C@H](CCCNC(=N)NS(=O)(=O)c1c(C)c(C)c2c(c1C)CC(C)(C)O2)NC(=O)[C@H](C)N1C(=O)c2ccccc2C1=O)C(=O)N[C@@H](Cc1cccc(I)c1)C(=O)OC |  |  | 50 µM, pH 7.4, 25 °C, added: endoprotease AspN | 0.833
CC[C@H](C)[C@@H]1NC(=O)[C@H](Cc2ccc(O)cc2)NC(=O)[C@@H](N)Cn2cc(nn2)CCCC[C@@H](C(=O)N2CCC[C@H]2C(=O)N[C@@H](CC(C)C)C(=O)NCC(N)=O)NC(=O)[C@H](CC(N)=O)NC(=O)[C@H](CCC(N)=O)NC1=O | RP-HPLC-MS | human pregnancy serum | 37 °C | > 48
